{"data": "Measurements collected from several papers", "note": "Parts stem from different laboratories: compare values within a part only. Changes are numbered by the printed parent chain."}
{"data": "Sample 1", "target": "Ras GTPase-activating protein-binding protein 1, RRM domain (G3BP1, Homo sapiens, UniProt Q13283)", "method": "RNA Bind-n-Seq", "molecule type": "RNA", "medium": "in vitro", "tested at": "1 µM", "setting": "whole 134-nt RNA, ends assumed", "added": "150 mM KCl", "relative to": "input library", "direction": "higher = stronger binding", "sequence of UniProt Q13283 (whole entry, looked up)": "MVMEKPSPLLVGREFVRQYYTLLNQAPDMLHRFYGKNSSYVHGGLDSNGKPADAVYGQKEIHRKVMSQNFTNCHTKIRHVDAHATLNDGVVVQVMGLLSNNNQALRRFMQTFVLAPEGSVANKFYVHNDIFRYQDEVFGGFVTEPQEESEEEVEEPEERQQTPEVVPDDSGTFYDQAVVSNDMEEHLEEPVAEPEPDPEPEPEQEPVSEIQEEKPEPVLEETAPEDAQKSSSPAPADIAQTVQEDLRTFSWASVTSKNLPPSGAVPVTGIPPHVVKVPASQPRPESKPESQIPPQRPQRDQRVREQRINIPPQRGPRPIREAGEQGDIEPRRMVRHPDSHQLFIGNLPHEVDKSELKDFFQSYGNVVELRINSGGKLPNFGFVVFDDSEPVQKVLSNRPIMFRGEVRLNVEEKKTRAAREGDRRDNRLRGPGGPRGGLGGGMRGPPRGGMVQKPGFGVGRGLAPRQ"}
{"Strand": "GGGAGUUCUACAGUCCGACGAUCUGUGGAUGCCCUGCUGAAGAAGUCUGAGGCCCAGCAUGAACAGCCGGAAGAUGGAUGCCCCUUUGGUGCCCUGACGCAGCGCCUCCUGCAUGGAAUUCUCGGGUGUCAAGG", "log2 enrichment": -0.4}
{"Strand": "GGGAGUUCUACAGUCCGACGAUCGUCCUGUGCUACACAUCGUAUGUACCGAAUCGGGCCCCCGGCCCCCGGGGCCCCCGGGAAAGUAUUAUGUUACGCCGUUCGGAUCUGCACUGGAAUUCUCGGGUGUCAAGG", "log2 enrichment": -0.744}
{"Strand": "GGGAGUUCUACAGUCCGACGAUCUCAAGUCCUGUGCUACACAUCGUAUGUACCGAAUCGGUGGAAAGGAAAAAAAGGAAAGUAUUAUGUUACGCCGUUCGGAUCUGCACUUCCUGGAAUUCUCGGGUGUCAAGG", "log2 enrichment": -0.102}
{"Strand": "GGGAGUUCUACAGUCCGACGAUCCCUGUGCUACACAUCGUAUGUACCGAAUCGGGCCCCCCGGGGCCCCCCGGCCCCCCGGGGAAAGUAUUAUGUUACGCCGUUCGGAUCUGCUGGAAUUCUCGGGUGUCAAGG", "log2 enrichment": -0.652}
{"Strand": "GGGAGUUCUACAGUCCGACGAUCUCCUGUGCUACACAUCGUAUGUACCGAAUCGGGGAAAAAGGGGAAAAAGGGGAAAAAGGAAAGUAUUAUGUUACGCCGUUCGGAUCUGCAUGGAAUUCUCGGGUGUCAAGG", "log2 enrichment": -0.0586}
{"Strand": "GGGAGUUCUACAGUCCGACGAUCUGGCGCCGUUCGACACCAGGCGGAUCCGCUCUGCAGCACGAACCCAUCUCCAGCCGCAGCCGCAGCCGCCGCCCGGGCCGAGGAGCAGCCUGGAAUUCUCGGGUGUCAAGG", "log2 enrichment": -0.646}
{"Strand": "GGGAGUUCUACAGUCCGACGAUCACCAUGCAGGUGGGCAUCUUUGGGAAGUGGGGCAAGGGGGGGAUAGGGAGGGGGGUAACACUUUGGGAACAGGUGGAAACAGGUCGUUUCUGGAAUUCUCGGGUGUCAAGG", "log2 enrichment": -0.523}
{"Strand": "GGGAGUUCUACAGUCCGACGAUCGUCCUGUGCUACACAUCGUAUGUACCGAAUCGGGGCCCCCGGCCCCCGGGCCCCCGGGGAAAGUAUUAUGUUACGCCGUUCGGAUCUGCAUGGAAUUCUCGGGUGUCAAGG", "log2 enrichment": -0.681}
{"Strand": "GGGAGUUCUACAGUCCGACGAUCACCAUGCAGGUGGGCAUCUUUGGGAAGUGGGGCAAGGGGGGGAUAGGAAGGGGGGUAACACUUUGGGAACAGGUGGUCCCAGGUCGUUUCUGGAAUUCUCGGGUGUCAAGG", "log2 enrichment": 0.942}
{"data": "Sample 2", "target": "Histone acetyltransferase KAT6A, winged helix 1, GST fusion (KAT6A, Homo sapiens, UniProt Q92794, residues 1-85)", "method": "protein binding microarray", "molecule type": "double-stranded DNA, one strand shown", "medium": "in vitro", "tested at": "not given", "setting": "8-mer, flanks averaged, mean of 2 arrays, mostly near background", "relative to": "not given", "direction": "higher = stronger binding", "Construct (chain)": "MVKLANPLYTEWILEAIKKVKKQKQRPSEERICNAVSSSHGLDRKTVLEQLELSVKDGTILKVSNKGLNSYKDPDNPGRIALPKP"}
{"Strand": "CACTCGAG", "E-score": -0.25}
{"Strand": "ACCTGTGC", "E-score": -0.0335}
{"Strand": "ATTTGATC", "E-score": -0.194}
{"Strand": "GGAAAAGA", "E-score": -0.108}
{"Strand": "CCTCAACG", "E-score": -0.195}
{"Strand": "CGGCTTAA", "E-score": 0.351}
{"Strand": "GTGTTGCA", "E-score": -0.0182}
{"Strand": "CTACAAGA", "E-score": -0.183}
{"Strand": "ACTCGGCT", "E-score": 0.135}
{"Strand": "TACTCGCA", "E-score": 0.123}
{"Strand": "CACAATAC", "E-score": -0.116}
{"Strand": "AGCAACAG", "E-score": -0.131}
{"Strand": "AGGGTCAA", "E-score": -0.15}
{"Strand": "GAAGGCAC", "E-score": 0.00562}
{"Strand": "CAACTGCA", "E-score": -0.313}
{"Strand": "AAAAATGA", "E-score": -0.211}
{"Strand": "CATTTTCG", "E-score": -0.112}
{"Strand": "CATATGGC", "E-score": -0.0191}
{"Strand": "AGTCACAG", "E-score": -0.186}
{"data": "Sample 3", "target": "UBE2B UBC core domain (UniProt P63146)", "method": "yeast two-hybrid", "medium": "yeast", "setting": "mostly zero background", "relative to": "not given", "direction": "higher = stronger interaction", "B1": "VPS41 RING domain (UniProt P49754); chain KGVLVDEENICESCLSPILPSDAAKPFSVVVFHCRHMFHKECLPMPSMNSAAQFCNICSAKNRGPGSAI", "B2": "SH3RF2 RING domain (UniProt Q8TEC5); chain DDLTLLDLLECPVCFEKLDVTAKVLPCQHTFCKPCLQRVFKAHKELRCPECRTPVFSNIEAL", "B3": "RNF38 RING domain (UniProt Q9H0F5); chain PNNHQSEQTLCVVCMCDFESRQLLRVLPCNHEFHAKCVDKWLKANRTCPICRADASEVHRDS", "B4": "MKRN1 RING domain (UniProt Q9UHC7); chain FAVQRSKDMVCGICMEVVYEKANPSERRFGILSNCNHTYCLKCIRKWRSAKQFESKIIKSCPECRITSNFVIPSE", "B5": "TRIM5 RING domain (UniProt Q9C035); chain LREVKLSPEGQKVDHCARHGEKLLLFCQEDGKVICWLCERSQEHRGHHTFLTEEVAREYQVKL", "B6": "NEURL1 RING domain (UniProt O76050); chain VTPGLGQWSDECTICYEHAVDTVIYTCGHMCLCYACGLRLKKALHACCPICRRPIKDIIKT", "B7": "DTX4 RING domain (UniProt Q9Y2E6); chain QKVRHPPDEDCTICMERLTAPSGYKGPQPTVKPDLVGKLSRCGHVYHIYCLVAMYNNGNKDGSLQCPTCKTIYGVKTGTQ", "B8": "TRIM24 RING domain (UniProt O15164); chain EAARLNLLDTCAVCHQNIQSRAPKLLPCLHSFCQRCLPAPQRYLMLPAPMLGSAETPPPVPAPGSPVSGSSPFATQVGVIRCPVCSQECAERHII", "sequence of UniProt P63146 (whole entry, looked up)": "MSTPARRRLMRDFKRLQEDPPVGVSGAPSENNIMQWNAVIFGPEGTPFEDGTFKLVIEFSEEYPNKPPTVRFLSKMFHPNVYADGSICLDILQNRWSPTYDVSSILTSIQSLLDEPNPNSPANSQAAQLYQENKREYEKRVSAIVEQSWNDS"}
{"Sequence": "DHGAVGQEMCCPICCSEYVKGEVATELPCHHYFHKPCVSIWLQKSGTCPVCRCMFPPPL (PJA1 RING domain (UniProt Q8NG27))", "lacZ reporter activity": 0}
{"Sequence": "B1 (VPS41 RING domain)", "lacZ reporter activity": 0}
{"Sequence": "B2 (SH3RF2 RING domain)", "lacZ reporter activity": 0}
{"Sequence": "B3 (RNF38 RING domain)", "lacZ reporter activity": 0}
{"Sequence": "B4 (MKRN1 RING domain)", "lacZ reporter activity": 0}
{"Sequence": "B5 (TRIM5 RING domain)", "lacZ reporter activity": 0}
{"Sequence": "B6 (NEURL1 RING domain)", "lacZ reporter activity": 0}
{"Sequence": "B7 (DTX4 RING domain)", "lacZ reporter activity": 0}
{"Sequence": "B8 (TRIM24 RING domain)", "lacZ reporter activity": 0}
{"data": "Sample 4", "target": "Interferon regulatory factor 5, full length, phosphomimetic (IRF5, Homo sapiens, UniProt Q13568-2, residues 1-514, K96S/S451D/S453D/S456D/S462D)", "method": "protein-binding microarray", "molecule type": "double-stranded DNA, one strand shown", "medium": "in vitro", "tested at": "250 nM", "setting": "60-bp whole probe", "added": "salmon DNA 0.4 mg/ml", "relative to": "random background probes", "direction": "higher = stronger binding", "constant ends, left off below": "GCCTAGCAC … GTCTTGATTCGCTTGACGCTGCTG"}
{"Strand": "TTAGGGCTCGGACTGGGTTAGTGCTAG", "log fluorescence": "-0.622 z-score"}
{"Strand": "GACGATTTCCGTATCGAGACGTGCTAG", "log fluorescence": "2.03 z-score"}
{"Strand": "ATACTGAGAAAGCACTGGACGTGCTAG", "log fluorescence": "0.128 z-score"}
{"Strand": "TCAGGTCTCGGTCTCGGTTAGTGCTAG", "log fluorescence": "0.742 z-score"}
{"Strand": "TAGTTTTCAATTTTTGCATCGTGCTAG", "log fluorescence": "1.88 z-score"}
{"Strand": "GACGGTATCGGTTTCGGGTCGTGCTAG", "log fluorescence": "8.75 z-score"}
{"Strand": "CAACCAATCATTTTTGCTTAGTGCTAG", "log fluorescence": "0.443 z-score"}
{"Strand": "GACGGTTTCGGTACTGGGGACGTGCTA", "log fluorescence": "8.8 z-score"}
{"Strand": "TCAGTCTTCACTCTGCTACTGTGCTAG", "log fluorescence": "0.417 z-score"}
{"Strand": "GGGTTTTTTAGGCAGACAGCGTGCTAG", "log fluorescence": "-0.135 z-score"}
{"Strand": "GGCGAACTGAGTATCGAGACGTGCTAG", "log fluorescence": "1.4 z-score"}
{"Strand": "TTAGGTTTCGGGTTTCGGTTGGTGCTA", "log fluorescence": "9.42 z-score"}
{"Strand": "TTAGGACTGGGTTTCCGTTAGTGCTAG", "log fluorescence": "0.207 z-score"}
{"Strand": "GACGATCTCAGTAACGAGACGTGCTAG", "log fluorescence": "-0.0145 z-score"}
{"Strand": "GACGGTATCCTACTGCTCACGTGCTAG", "log fluorescence": "0.0205 z-score"}
{"Strand": "TTAGAACTGAGACAGGATTAGTGCTAG", "log fluorescence": "-0.369 z-score"}
{"Strand": "GGTCCTCTGGGCTGTTTGGCCGTGCTA", "log fluorescence": "-0.913 z-score"}
{"Strand": "GACGGACTGGGGTACCGGGACGTGCTA", "log fluorescence": "-0.599 z-score"}
{"Strand": "GAAGATGTGTATATGACAATGTGCTAG", "log fluorescence": "-0.0388 z-score"}
{"data": "Sample 5", "target": "CCND2, cyclin fold, Cln2 fusion (human)", "method": "yeast growth competition, sequencing", "medium": "yeast", "setting": "weak parent motif", "relative to": "not given", "direction": "higher = stronger binding", "starting sequence": "MASTL docking peptide (human); PMIAKNLMCELDE; partner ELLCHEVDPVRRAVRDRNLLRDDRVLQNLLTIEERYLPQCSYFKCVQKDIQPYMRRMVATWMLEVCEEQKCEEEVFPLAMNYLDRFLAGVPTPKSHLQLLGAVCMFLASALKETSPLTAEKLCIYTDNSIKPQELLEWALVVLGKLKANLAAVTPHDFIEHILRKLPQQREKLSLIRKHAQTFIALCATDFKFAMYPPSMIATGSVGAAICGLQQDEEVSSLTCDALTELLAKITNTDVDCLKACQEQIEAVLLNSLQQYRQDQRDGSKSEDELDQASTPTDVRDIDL"}
{"Substitution": "D12N", "normalised enrichment score": 0.0344}
{"Substitution": "M2C", "normalised enrichment score": 0.155}
{"Substitution": "E10P", "normalised enrichment score": -0.0869}
{"Substitution": "C9I", "normalised enrichment score": -0.172}
{"Substitution": "C9G", "normalised enrichment score": -0.0148}
{"Substitution": "E10K", "normalised enrichment score": 0.299}
{"Substitution": "A4H", "normalised enrichment score": 0.152}
{"Substitution": "K5D", "normalised enrichment score": 0.319}
{"Substitution": "M2N", "normalised enrichment score": -0.104}
{"Substitution": "I3L", "normalised enrichment score": 0.126}
{"Substitution": "K5H", "normalised enrichment score": 0.0158}
{"Substitution": "D12V", "normalised enrichment score": 0.0455}
{"Substitution": "M2H", "normalised enrichment score": 0.0615}
